{"data": "Measurements from different studies", "CSNK1A1": "Casein kinase I isoform alpha (CSNK1A1, Homo sapiens, UniProt P48729)", "CSNK1D": "Casein kinase I isoform delta (CSNK1D, Homo sapiens, UniProt P48730)", "note": "“And” joins repeats or separate records; there may be more than shown.", "UniProt P48729, sequence (whole entry, looked up)": "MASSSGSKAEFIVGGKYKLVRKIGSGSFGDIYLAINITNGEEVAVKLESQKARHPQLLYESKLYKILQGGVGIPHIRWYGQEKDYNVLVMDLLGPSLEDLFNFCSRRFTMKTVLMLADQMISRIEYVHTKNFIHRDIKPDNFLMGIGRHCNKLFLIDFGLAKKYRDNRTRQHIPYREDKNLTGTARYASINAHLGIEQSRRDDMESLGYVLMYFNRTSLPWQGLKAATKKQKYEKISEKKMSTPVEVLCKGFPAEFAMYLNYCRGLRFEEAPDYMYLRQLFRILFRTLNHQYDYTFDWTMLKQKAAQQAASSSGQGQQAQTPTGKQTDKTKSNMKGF", "UniProt Q15109, sequence (whole entry, looked up)": "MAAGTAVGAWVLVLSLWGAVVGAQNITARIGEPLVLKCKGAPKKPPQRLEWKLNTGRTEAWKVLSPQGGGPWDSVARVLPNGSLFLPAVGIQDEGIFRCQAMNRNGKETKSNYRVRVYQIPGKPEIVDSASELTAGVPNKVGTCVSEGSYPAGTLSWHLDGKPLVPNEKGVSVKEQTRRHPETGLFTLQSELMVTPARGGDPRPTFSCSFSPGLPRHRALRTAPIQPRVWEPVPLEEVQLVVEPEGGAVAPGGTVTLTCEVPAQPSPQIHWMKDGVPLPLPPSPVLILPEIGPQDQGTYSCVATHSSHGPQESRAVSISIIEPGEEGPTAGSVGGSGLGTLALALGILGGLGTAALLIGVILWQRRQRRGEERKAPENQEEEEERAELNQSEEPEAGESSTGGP", "UniProt Q8TBX8, sequence (whole entry, looked up)": "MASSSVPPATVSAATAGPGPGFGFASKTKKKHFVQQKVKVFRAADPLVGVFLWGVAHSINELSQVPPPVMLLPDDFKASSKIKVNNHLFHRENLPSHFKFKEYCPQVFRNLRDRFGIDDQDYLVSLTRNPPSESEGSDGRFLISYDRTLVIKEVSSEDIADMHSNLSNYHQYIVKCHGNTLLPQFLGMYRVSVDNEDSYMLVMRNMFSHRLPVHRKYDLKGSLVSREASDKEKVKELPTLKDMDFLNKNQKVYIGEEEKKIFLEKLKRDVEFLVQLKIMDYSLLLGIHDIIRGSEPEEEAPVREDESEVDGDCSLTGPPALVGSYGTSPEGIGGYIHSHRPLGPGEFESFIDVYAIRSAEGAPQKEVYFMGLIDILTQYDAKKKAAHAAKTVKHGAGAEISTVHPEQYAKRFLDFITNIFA", "UniProt P48730, sequence (whole entry, looked up)": "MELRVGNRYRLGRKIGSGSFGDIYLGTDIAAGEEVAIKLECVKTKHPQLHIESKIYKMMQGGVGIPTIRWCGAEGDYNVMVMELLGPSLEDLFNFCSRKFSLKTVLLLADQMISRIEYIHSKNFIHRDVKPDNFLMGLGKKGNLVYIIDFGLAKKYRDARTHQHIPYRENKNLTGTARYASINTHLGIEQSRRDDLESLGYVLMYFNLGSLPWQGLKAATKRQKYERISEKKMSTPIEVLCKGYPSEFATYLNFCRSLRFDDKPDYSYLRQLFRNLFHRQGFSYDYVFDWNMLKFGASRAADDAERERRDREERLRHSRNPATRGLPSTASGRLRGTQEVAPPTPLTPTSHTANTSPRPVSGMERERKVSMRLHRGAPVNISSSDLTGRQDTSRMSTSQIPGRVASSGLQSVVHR", "UniProt P09622, sequence (whole entry, unmodified, looked up)": "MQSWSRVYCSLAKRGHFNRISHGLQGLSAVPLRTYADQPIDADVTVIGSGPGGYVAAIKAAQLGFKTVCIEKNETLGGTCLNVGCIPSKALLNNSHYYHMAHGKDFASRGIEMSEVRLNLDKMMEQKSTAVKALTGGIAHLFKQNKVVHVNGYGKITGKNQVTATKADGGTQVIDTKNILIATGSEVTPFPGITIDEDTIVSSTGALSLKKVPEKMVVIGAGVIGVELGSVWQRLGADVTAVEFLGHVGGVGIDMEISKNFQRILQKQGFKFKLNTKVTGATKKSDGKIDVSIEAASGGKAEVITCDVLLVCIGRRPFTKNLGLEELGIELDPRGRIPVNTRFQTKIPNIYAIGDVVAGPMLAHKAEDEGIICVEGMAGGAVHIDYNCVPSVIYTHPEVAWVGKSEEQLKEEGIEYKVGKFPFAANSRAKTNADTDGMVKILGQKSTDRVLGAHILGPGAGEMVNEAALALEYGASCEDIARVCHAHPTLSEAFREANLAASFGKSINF", "UniProt Q9NYL2, sequence (whole entry, looked up)": "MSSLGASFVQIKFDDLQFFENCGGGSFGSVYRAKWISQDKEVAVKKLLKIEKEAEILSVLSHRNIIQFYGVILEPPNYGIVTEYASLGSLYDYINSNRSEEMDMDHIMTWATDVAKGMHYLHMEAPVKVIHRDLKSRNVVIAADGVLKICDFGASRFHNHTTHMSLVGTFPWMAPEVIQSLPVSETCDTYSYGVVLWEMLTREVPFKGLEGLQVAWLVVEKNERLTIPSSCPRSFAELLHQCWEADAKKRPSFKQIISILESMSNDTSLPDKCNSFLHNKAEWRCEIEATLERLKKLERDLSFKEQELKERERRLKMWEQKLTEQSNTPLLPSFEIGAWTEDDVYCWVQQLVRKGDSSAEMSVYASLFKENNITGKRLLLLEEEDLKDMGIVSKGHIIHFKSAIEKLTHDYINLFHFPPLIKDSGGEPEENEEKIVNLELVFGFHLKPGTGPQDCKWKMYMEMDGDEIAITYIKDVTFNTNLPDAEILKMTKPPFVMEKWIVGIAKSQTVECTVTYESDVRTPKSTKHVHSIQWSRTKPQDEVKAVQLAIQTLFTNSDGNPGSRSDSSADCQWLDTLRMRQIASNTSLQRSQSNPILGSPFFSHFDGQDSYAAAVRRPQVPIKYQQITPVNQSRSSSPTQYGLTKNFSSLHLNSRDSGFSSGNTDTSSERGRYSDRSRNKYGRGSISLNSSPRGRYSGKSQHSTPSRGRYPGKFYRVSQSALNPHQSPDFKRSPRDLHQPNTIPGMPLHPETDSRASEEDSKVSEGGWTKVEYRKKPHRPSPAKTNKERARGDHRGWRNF", "UniProt P10997, sequence (whole entry, looked up)": "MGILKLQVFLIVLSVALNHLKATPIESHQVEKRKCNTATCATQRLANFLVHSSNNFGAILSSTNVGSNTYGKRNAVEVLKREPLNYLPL", "UniProt P40261, sequence (whole entry, looked up)": "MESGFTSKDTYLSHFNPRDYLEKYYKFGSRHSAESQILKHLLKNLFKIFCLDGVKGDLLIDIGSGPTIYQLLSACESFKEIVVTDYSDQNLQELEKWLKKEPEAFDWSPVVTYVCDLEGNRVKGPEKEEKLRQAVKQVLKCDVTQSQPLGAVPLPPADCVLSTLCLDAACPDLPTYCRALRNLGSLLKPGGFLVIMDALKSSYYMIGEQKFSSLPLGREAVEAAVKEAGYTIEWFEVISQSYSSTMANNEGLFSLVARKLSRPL", "UniProt P30048, sequence (whole entry, looked up)": "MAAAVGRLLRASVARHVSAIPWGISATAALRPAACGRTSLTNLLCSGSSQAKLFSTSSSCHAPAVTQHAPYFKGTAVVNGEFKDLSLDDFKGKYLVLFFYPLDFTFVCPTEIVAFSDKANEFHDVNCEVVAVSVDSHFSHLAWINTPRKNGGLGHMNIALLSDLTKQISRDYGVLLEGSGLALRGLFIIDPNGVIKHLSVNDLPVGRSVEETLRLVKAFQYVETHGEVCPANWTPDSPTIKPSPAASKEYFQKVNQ", "UniProt P07339, sequence (whole entry, looked up)": "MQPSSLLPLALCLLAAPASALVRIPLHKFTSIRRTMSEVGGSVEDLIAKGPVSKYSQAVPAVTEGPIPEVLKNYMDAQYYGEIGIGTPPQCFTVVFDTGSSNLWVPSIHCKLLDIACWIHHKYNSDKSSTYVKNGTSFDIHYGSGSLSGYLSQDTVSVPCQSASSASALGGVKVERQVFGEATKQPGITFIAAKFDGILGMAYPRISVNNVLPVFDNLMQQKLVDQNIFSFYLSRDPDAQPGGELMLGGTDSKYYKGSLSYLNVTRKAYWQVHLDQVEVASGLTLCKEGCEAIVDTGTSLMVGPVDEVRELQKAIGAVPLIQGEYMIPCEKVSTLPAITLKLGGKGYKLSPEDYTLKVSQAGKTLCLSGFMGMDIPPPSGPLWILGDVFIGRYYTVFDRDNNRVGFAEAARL", "UniProt Q8N8S7, sequence (whole entry, looked up)": "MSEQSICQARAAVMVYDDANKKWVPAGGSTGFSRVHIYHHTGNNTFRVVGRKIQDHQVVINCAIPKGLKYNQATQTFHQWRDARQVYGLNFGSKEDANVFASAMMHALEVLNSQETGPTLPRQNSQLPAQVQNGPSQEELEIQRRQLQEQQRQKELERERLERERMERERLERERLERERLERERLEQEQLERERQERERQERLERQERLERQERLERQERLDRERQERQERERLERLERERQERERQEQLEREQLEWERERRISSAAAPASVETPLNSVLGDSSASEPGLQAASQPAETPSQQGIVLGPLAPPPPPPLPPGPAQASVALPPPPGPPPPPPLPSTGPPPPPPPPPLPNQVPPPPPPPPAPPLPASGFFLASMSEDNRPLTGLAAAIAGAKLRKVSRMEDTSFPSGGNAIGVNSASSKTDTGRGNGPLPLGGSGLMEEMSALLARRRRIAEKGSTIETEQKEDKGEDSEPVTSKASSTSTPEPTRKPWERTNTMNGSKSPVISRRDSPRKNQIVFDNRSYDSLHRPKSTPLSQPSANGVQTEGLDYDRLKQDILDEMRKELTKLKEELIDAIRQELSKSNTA", "UniProt Q9Y6Y9, sequence (whole entry, looked up)": "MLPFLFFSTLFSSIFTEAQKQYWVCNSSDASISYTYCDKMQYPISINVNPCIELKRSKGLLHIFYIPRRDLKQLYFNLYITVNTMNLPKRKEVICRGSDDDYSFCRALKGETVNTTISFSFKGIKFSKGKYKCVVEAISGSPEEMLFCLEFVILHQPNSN", "UniProt Q47319, sequence (whole entry, looked up)": "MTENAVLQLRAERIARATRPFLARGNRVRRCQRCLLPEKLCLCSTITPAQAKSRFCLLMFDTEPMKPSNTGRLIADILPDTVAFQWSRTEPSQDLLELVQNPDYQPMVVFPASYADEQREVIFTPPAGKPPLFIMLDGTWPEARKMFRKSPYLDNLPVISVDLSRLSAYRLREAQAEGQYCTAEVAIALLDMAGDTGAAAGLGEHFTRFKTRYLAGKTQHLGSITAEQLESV"}
{"Compound": "NC(=O)c1ccc[n+]([C@@H]2O[C@H](COP(=O)([O-])OP(=O)(O)OC[C@H]3O[C@@H](n4cnc5c(N)ncnc54)[C@H](O)[C@@H]3O)[C@@H](O)[C@H]2O)c1", "target": "Dihydrolipoyl dehydrogenase, mitochondrial (DLD, Homo sapiens, UniProt P09622)", "test": "binding, SPR", "Kd": "1.36 µM"}
{"Compound": "NC(=O)c1cccnc1", "target": "Nicotinamide N-methyltransferase (NNMT, Homo sapiens, UniProt P40261)", "test": "binding, NMR", "Kd": "> 5000 µM"}
{"Compound": "C/C=C(\\C=O)[C@@H]1C[C@H]2c3[nH]c4ccccc4c3CCN2C=C1C(=O)OC", "target": "Thioredoxin-dependent peroxide reductase, mitochondrial (PRDX3, Homo sapiens, UniProt P30048)", "test": "binding, SPR", "Kd": "0.57 µM"}
{"Compound": "N#Cc1ccc(O)cc1F", "target": "CSNK1A1", "test": "binding, SPR", "Kd": "> 50 µM"}
{"Compound": "CCCN1CCN(c2ccc(-c3cncc(Cl)c3N3CCC4(CCNC4=O)CC3)cc2)CC1", "target": "Mitogen-activated protein kinase kinase kinase 20 (MAP3K20, Homo sapiens, UniProt Q9NYL2)", "test": "cell-free assay", "conditions": "lysate", "Kd": "> 21.4 µM"}
{"Compound": "O=C(COc1cccc2ccccc12)Nc1nc2ccccc2[nH]1", "target": "CSNK1A1", "test": "binding, SPR", "Kd": "1.1 µM"}
{"Compound": "OC[C@H]1OC(O)[C@H](O)[C@@H](O)[C@@H]1O (stereo partly shown)", "target": "Probable ATP-dependent RNA helicase DDX6 (Homo sapiens, UniProt P26196)", "test": "binding, MST", "Kd": "629 µM"}
{"Compound": "N#Cc1ccc2c(CN3CCOCC3)cc(-c3ccc([C@H]4CCC(=O)N4)cc3)nc2c1", "target": "Advanced glycosylation end product-specific receptor (AGER, Homo sapiens, UniProt Q15109)", "test": "binding, fluorescence", "Kd": "~0.0003 µM and 0.0003 µM"}
{"Compound": "CCn1cnc(C(=O)NC)c1C(=O)NC", "target": "CSNK1A1", "test": "binding, SPR", "Kd": "> 50 µM"}
{"Compound": "C[S+](CC[C@H](N)C(=O)O)C[C@H]1O[C@@H](n2cnc3c(N)ncnc32)[C@H](O)[C@@H]1O (stereo partly shown)", "target": "tapT (Escherichia coli, UniProt Q47319)", "test": "binding, ITC", "Kd": "57.7 µM"}
{"Compound": "N#Cc1cc(I)c(O)c([N+](=O)[O-])c1", "target": "CSNK1D", "test": "binding, SPR", "Kd": "> 50 µM"}
{"Compound": "Cc1cc2nc3c(=O)[nH]c(=O)nc-3n(C[C@H](O)[C@H](O)[C@H](O)COP(=O)(O)OP(=O)(O)OC[C@H]3O[C@@H](n4cnc5c(N)ncnc54)[C@H](O)[C@@H]3O)c2cc1C", "target": "Dihydrolipoyl dehydrogenase, mitochondrial (DLD, Homo sapiens, UniProt P09622, K430Q)", "test": "binding, SPR", "Kd": "1.83 µM"}
{"Compound": "CC(C)CC(=O)N[C@H](C(=O)N[C@H](C(=O)N[C@@H](CC(C)C)[C@@H](O)CC(=O)N[C@@H](C)C(=O)N[C@@H](CC(C)C)[C@@H](O)CC(N)=O)C(C)C)C(C)C", "target": "Cathepsin D (CTSD, Homo sapiens, UniProt P07339)", "test": "binding, SPR", "Kd": "0.72 µM"}
{"Compound": "Brc1cnc2nccnc2c1", "target": "CSNK1A1", "test": "binding, SPR", "Kd": "> 50 µM"}
{"Compound": "Cc1cnc(-c2ccc(-c3ccc(NC(=O)Nc4c(F)cc(F)cc4F)cc3F)c3c2C(=O)NC3)[nH]1", "target": "Angiopoietin-1 receptor (TEK, Homo sapiens, UniProt Q02763)", "test": "binding, competition with immobilised ligand", "Kd": "0.018 µM"}
{"Compound": "c1ccc(Nc2nc3c(s2)Cc2ccccc2-3)cc1", "target": "CSNK1D", "test": "binding, SPR", "Kd": "43.6 µM"}
{"Compound": "C[C@@H]1O[C@@H](OC[C@H]2O[C@@H](Oc3cc(O)c4c(c3)O[C@H](c3ccc(O)cc3)CC4=O)[C@H](O)[C@@H](O)[C@@H]2O)[C@H](O)[C@H](O)[C@H]1O", "target": "Islet amyloid polypeptide (IAPP, Homo sapiens, UniProt P10997)", "test": "binding, ITC", "Kd": "5.49 µM"}
{"Compound": "CC(=O)NC(Cc1ccccc1Cl)C(=O)N1CCCC1C(=O)N1CCCC1C(=O)N1CCC2C=CC3C(C)CC(C(=O)O)N3C(=O)C21 (stereo not shown)", "target": "Protein enabled homolog (ENAH, UniProt Q8N8S7)", "test": "binding, fluorescence", "Kd": "~0.3 µM"}
{"Compound": "CCn1c2ccccc2c2cc(Nc3ccnc(NCCCN4CCOCC4)n3)ccc21", "target": "CSNK1A1", "test": "binding, SPR", "Kd": "> 50 µM"}
{"Compound": "Cc1ncsc1-c1ccc([C@H](C)NC(=O)[C@@H]2C[C@@H](O)CN2C(=O)[C@@H](NC(=O)CCCCCC(=O)N2CCC3(CC2)CCN(c2cncc(Nc4ncc(Cl)c(-c5cccc(-c6ccccc6)c5)n4)c2)C3=O)C(C)(C)C)cc1", "target": "Phosphatidylinositol 5-phosphate 4-kinase type-2 gamma (PIP4K2C, Homo sapiens, UniProt Q8TBX8)", "test": "binding", "Kd": "< 0.045 µM and 0.042 µM"}
{"Compound": "Nc1ncnc2c1ncn2[C@@H]1O[C@H](COP(=O)(O)OP(=O)(O)OP(=O)(O)O)[C@@H](O)[C@H]1O", "target": "dnaA (Escherichia coli, UniProt P03004, G79D)", "test": "binding", "Kd": "0.04 µM"}
{"Compound": "C[C@H]1[C@H](OC(=O)CCC(=O)O)O[C@@H]2O[C@@]3(C)CC[C@H]4[C@H](C)CC[C@@H]1[C@@]24OO3", "target": "Lymphocyte antigen 96 (LY96, Homo sapiens, UniProt Q9Y6Y9)", "test": "binding, SPR", "Kd": "3.2 µM"}
{"note": "Excerpt of the above:"}
{"Compound": "NC(=O)c1cccnc1", "target": "Nicotinamide N-methyltransferase (NNMT, Homo sapiens, UniProt P40261)", "test": "binding, NMR", "Kd": "> 5000 µM"}
{"Compound": "N#Cc1cc(I)c(O)c([N+](=O)[O-])c1", "target": "CSNK1D", "test": "binding, SPR", "Kd": "> 50 µM"}
